Measurements collected from several papers.
A part holds a random share of what one study measured.

Set 1
Target: Histone acetyltransferase KAT6A, winged helix 2, GST fusion (KAT6A, Homo sapiens, UniProt Q92794, residues 85-181)
Technique: protein binding microarray
Molecule type: double-stranded DNA, one strand shown
Matrix: in vitro
Concentration: not given
Setting: 8-mer, flanks averaged, mean of 2 arrays, mostly near background
Reference: not given
Direction: higher = stronger binding
Construct (chain): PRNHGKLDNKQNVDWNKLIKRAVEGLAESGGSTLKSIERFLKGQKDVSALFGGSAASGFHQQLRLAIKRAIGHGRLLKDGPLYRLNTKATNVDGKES
| Sequence | E-score |
| --- | --- |
| GATACCCC | -0.0066 |
| GGCGGAAC | 0.131 |
| AGTAAGAT | -0.0952 |
| AGACTTAT | -0.187 |
| TATTTGGA | -0.05 |
| AAGACTGT | -0.15 |
| TCTATGAA | 0.13 |
| GTGGCATA | -0.0586 |
| ATACCTGC | 0.0106 |
| CAAACCTA | 0.0318 |
| ATACGATA | -0.113 |
| GTGCTTCA | 0.0627 |
| AGTTGTTA | -0.0348 |
| GGATTTAA | -0.0629 |
| CGTCCAAA | 0.0187 |
| ACGAGAAA | 0.22 |

Set 2
Target: Sal-like protein 4, full length isoform A (SALL4, Homo sapiens, UniProt Q9UJQ4, residues 1-1053)
UniProt Q9UJQ4, sequence (whole entry, looked up): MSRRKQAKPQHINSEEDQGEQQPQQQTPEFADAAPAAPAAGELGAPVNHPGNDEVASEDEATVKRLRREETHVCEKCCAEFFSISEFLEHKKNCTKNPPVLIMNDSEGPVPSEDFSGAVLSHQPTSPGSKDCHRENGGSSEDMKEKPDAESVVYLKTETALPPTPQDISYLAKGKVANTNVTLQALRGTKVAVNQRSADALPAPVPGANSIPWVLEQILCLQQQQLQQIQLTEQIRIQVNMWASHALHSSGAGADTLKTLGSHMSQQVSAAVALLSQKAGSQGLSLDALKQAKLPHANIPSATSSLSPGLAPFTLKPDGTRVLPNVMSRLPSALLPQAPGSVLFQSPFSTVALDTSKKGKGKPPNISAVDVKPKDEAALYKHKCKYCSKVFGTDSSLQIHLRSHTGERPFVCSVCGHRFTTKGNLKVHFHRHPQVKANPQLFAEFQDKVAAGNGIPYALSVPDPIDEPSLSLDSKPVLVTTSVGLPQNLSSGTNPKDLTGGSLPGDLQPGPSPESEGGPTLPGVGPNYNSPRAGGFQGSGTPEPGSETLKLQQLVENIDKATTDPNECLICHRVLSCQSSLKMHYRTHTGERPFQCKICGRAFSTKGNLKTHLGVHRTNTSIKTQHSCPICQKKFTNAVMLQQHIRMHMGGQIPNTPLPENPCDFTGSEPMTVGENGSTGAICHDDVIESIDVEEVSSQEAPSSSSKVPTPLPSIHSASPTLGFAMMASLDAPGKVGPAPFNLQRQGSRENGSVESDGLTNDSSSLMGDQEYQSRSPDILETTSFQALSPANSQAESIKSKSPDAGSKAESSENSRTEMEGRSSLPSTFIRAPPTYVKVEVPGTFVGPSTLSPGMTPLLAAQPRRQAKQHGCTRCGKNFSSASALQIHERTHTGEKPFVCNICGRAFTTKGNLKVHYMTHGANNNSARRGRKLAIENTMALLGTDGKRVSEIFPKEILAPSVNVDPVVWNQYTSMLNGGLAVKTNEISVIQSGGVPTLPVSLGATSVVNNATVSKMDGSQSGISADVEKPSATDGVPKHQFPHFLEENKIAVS
Technique: universal PBM
Molecule type: double-stranded DNA, one strand shown
Matrix: in vitro
Concentration: 600 nM
Setting: 8-mer, flanks averaged, mean of replicates
Direction: higher = stronger binding
| Sequence | E-score |
| --- | --- |
| AGTAATCC | 0.1 |
| CGGGCTCC | -0.357 |
| ATTCAGCC | -0.0109 |
| GTCAGCAA | 0.0899 |
| CAGCGTAC | -0.199 |
| CTCGACCA | -0.176 |
| GCCCTGTA | -0.0675 |
| CCTGCTTA | -0.0946 |
| CTATTTCA | 0.208 |
| TACGACGA | 0.106 |
| GCTCCCGA | -0.248 |
| ATGCCCGG | -0.29 |
| AATGTTTG | 0.131 |
| ACGCTAAC | -0.135 |
| GGCTCTAA | -0.0476 |
| AAGTTGAT | 0.165 |
| CGGTAGCC | -0.265 |
| ACCGTGAT | 0.106 |
| CTAGAGGA | -0.0947 |
| CAAGGGCC | -0.31 |
| ACAGAACC | -0.105 |
| CTGCGAGA | -0.284 |
| GTGATTCA | 0.0899 |

Set 3
Target: Ras GTPase-activating protein-binding protein 1, full length (G3BP1, Homo sapiens, UniProt Q13283)
UniProt Q13283, sequence (whole entry, looked up): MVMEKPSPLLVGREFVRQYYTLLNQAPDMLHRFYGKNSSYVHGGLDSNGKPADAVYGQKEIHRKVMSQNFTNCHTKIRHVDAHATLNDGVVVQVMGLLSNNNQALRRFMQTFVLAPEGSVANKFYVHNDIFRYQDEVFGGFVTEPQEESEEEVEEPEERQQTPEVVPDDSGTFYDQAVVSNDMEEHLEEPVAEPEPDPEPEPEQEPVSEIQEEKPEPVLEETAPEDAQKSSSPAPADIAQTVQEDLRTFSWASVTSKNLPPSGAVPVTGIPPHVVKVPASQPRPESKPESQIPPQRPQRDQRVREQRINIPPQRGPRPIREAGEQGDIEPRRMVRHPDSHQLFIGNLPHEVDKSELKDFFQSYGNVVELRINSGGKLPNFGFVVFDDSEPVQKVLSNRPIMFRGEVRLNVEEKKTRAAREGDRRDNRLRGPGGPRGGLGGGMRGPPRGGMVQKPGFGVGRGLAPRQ
Technique: RNA Bind-n-Seq
Molecule type: RNA
Matrix: in vitro
Concentration: 200 nM
Setting: whole 134-nt RNA, ends assumed
Added: 150 mM LiCl
Reference: input library
Direction: higher = stronger binding
All molecules: 7-deaza-guanosine replaces G
Constant ends, left off below: GGGAGUUCUACAGUCCGACGAUC … UGGAAUUCUCGGGUGUCAAGG
| Sequence | log2 enrichment |
| --- | --- |
| CUCAAGUCCUGUGCUACACAUCGUAUGUACCGAAUCGGGUGGGGUGGGGUGGGAAAGUAUUAUGUUACGCCGUUCGGAUCUGCACUUCCA | -0.78 |
| AAGUCCUGUGCUACACAUCGUAUGUACCGAAUCGGUUUUUUUGGUUUUUGGUUUGGAAAGUAUUAUGUUACGCCGUUCGGAUCUGCACUU | -1.74 |
| UGGCCCUGGUGGCAUGCGGGGAGGAAGAGGUGGCCUCAUGGAUCGUGGUGGUCCCGGUGGAAUGUCCAGAGGUGGCCGUGGUGGAGACAG | -0.0469 |
| GCAGGAAGUAAAAACAAAUGGAAAAGCUUCGGAUAGUGGCAGGGGUGGGGGUUGCUAAGGAAAGGGUGGGAUGGGAGUGGGUAAAGAGUU | -0.112 |
| ACCAUGCAGGCGGGCAUCUUUGGGAAGUGGGGCAAGGGGGGGAUAGGGAGGGGGGUAACACUUUGGGAACAGGUGGUCCCAGGUCGUUUC | 0.0964 |
| CUCAAGUCCUGUGCUACACAUCGUAUGUACCGAAUCGGAAAGGAAAAAGGUGGAAAGUAUUAUGUUACGCCGUUCGGAUCUGCACUUCCA | -0.614 |
| CUGUGCUACACAUCGUAUGUACCGAAUCGGGGUUUUUUUGGUUUUUUUGGGGUUUUUUUGGGAAAGUAUUAUGUUACGCCGUUCGGAUCU | 1.28 |
| UAACUUUAGAGGAGGAUCUGAUGGAUAUGGCAGUGGACGUGGAUUUGGGGCUGGCUAUAAUGGGUAUGGAGGAGGACCUGGAGGUGGCAA | 0.0422 |

Set 4
Target: RNA binding protein fox-1 homolog 2, RRM domain, GST-SBP tag (RBFOX2, Homo sapiens, UniProt O43251-10, residues 100-194)
Technique: RNA Bind-n-Seq
Molecule type: RNA
Matrix: in vitro
Concentration: 365 nM
Setting: natural RNA segment, single round, ends assumed
Reference: no-protein control
Direction: higher = stronger binding
Constant ends, left off below: GGGAGUUCUACAGUCCGACGAUC … UGGAAUUCUCGGGUGCCAA
Residues (chain): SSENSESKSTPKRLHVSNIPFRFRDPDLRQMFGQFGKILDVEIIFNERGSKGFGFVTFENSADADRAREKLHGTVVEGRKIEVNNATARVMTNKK
| Sequence | RBNS enrichment (R) |
| --- | --- |
| GAAAAUGCAGAUUUGGGGACAAAGGUCUUUUUACUGCUCAAGUAGGGUCGCUUCUGUCCUGUUGCAAUCAUGUCCAAGUUUGUUUUUAGUGUGGACUUUUGUGGGCACUG | 0.947 |
| GAUUUAUGUCCCUUCCCUCCCCCCUAAGUACAUCAGGGAACCUUUCCACACUAUAAAUGAUAUGACUACUGUUUGGGGUUUCUGGGCCCCCAUCCGUGUACGUAUGUGGC | 0.713 |
| CGGUGUGGCAGCUUUUGGAUUUUUUUCCUCCGGGGAGCAUUGACUGUGUGGACAUUGUUUGAGGAGCUAGAAAGAAGAUCGGCUGGGGAUCACGAGCCCCUACUUCCCAA | 0.51 |
| GACACCCUGGUGCUGCUGCUGGUGAGACUGGUGUCCAAGGCAGGGCCCAGCAGAAACUGCAGCCUGCUGUCUACCAAAGGAGGUACCCGAGUUGGGUACUUUAAAAAAAA | 0.288 |
| UCUUUACAUAUUUAUAUGUAUGUUUUAAGUAGUCCUCCUGUAUCUAUUGUAUAUUUUUUUCUUAAUGUUUAAGGAAAUGUGCAGGAUACUACAUGCUUUUUGUAUCACAC | 0.602 |
| AAACCUAAGUUAAACUUUUUCCCAAACAAGGAGCAUCCAAAGACACAGUGACUUGAGCUAUAGAUAGUAAAAAUCAUACGAGAGUUGAACUGAGUCAGGUUUAGGAAGCA | 1.48 |
| UGGAUGCUUAAAAAGUAAGUGCUUGGAUUUAACCCUAAAGUGGUUUGAAAUUGGGAAGAAGUGUGACAGGAUACAGUUGGGCUAAUUAUGCAAUAUUUCAUCUGUUUAAU | 0.933 |
| UUGCACUAGUGGGGACUGCUUUUCUCUCACUAAAUAUAGCAGUUAAUAUCCAGUCAUUAAGGAGUUGUCACUCUUCAUCAGAGUCACCGGACCUAUGCAAUUACAUGGGC | 1.75 |

Excerpt of the above (set 2):
| Sequence | E-score |
| --- | --- |
| GTCAGCAA | 0.0899 |
| CAGCGTAC | -0.199 |
| CTCGACCA | -0.176 |
| GCCCTGTA | -0.0675 |
